Published values from different studies.
Parts stem from different laboratories: compare values within a part only. Substitutions count along the parent as printed.

Set 1
Target: NFIL3, bZIP domain (human)
Method: DHFR protein complementation
Matrix: yeast
Notes: single substitutions, most at no-binding floor
Baseline: wild-type JUN-FOS pair
Reading: higher = stronger binding
Starting sequence: JUN, bZIP domain (human); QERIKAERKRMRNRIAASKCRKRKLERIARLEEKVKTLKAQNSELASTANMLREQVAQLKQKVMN; partner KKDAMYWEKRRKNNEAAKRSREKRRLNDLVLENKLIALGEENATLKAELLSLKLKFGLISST
Substitution | binding fitness [natural log]
M51W | -1.43
L52D | -1.48
V35T | -1.56
L45I | -1.51
Q55W | -1.52
L38T | -1.56
A40K | -1.3
E54H | -1.57
L45W | -1.54
A46S | -1.33
S47V | -1.32
S47D | -1.55
L38K | -1.54
E32Q | -1.4
Q55A | -1.48
Q55C | -1.5
L31V | -1.49

Set 2
Target: RNA binding protein fox-1 homolog 2, RRM domain, GST-SBP tag (RBFOX2, Homo sapiens, UniProt O43251-10, residues 100-194)
Method: RNA Bind-n-Seq
Form: RNA
Matrix: in vitro
Concentration: 365 nM
Notes: natural RNA segment, single round, ends assumed
Baseline: no-protein control
Reading: higher = stronger binding
All sequences stand within: GGGAGUUCUACAGUCCGACGAUC … UGGAAUUCUCGGGUGCCAA
Residues (chain): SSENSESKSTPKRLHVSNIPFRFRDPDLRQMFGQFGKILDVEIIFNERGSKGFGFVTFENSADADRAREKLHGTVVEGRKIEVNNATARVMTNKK
Oligonucleotide | RBNS enrichment (R)
GAGGCAGGUGGCAAUCUCCUCGCCAGCAUUCCAGGCCCUCAGUUCAAUGACAUCUCUCAGAGCAUUUUUGUUUUCUCCUCUGAAGGUCCAUCCAGUUGCAUUGGGAAGGG | 6.21
CUUGUUGGCCACUUUUCAGUCCUGAGAUGAGGGCCUGAGCCAGUCUUCUCUAGGGGUGGGAUGAGACUACUCACGAGGACCAAGGAACAGAGCCCAGAGAAACAGCAGCC | 0.289
CAUCUUUUUCCUAGACCAUGUUUCUGUCUUACUCUUAAACCUGGUAACACUUGAUUUGCCUUCUAUAACCUAUUUAUUUCAAGUGUUCAUAUUUGAAUUUCUUUGGGAAG | 0.334
UCUUCUCACAUCCAUCUACUUUUUUAUCCACCUCCCUACCAAAAAUUGCCAAGUGCCUAUGCAAACCAGCUUUAGGUCCCAAUUCGGGGCCUGCUGGAGUUCCGGCCUGG | 0.721
UUAGGGAAGGAGAAUGUUUGUCCUGUCUCCCUACACUUCCCUGAGGGCUUCUUCCUACCAAAGUGUCCCCUCACCAGUCUGCCUAGAGCAUCACUGGAACCCGCACUAAA | 1.16
CGACUACAGAGUACUUUUUUCUUAUGAUGAUUGGUGUAGAAAUGUGUGAUUUGGGUGGGCUUUUACAUCUUGCCUACCAUUGCAUGAAACAUUGGGGUUUCUUCAAAAUG | 14.7
GGAUGUUCGAUUCAUGUAAGUGACCUACCUGCUGAUGAUCCACAAAUAAUACUUUAGGGUGGCACUGACCGCUAUACCAGCAGCCCCAUGAGCACUCAAAGUGCCUUUCG | 0.316
CUCUGCACCAACAGUUUAUGGCUGAGAUGUUUUGUAAUUUCAUGAUGUUUGUAAUUUUCAUGAAAAUGUGUGAUUUUCGUUUGUGAUAUGAAAGAUCAUUAAUCAAAGAA | 0.737
CCCCAGUUCUGUAGCAGCCGAUCAGCGUCACCUUUGAAGUAUACAUGAGAGAAAUAUAUUUACAAAUGCUUUAUUCUCUUCUUUAAUAAAAAGUGCACCGGUAUUCUAGA | 1.09
UUAUUUGCACAGGGAGAAUUGAAACUGAGUAUAAUCAAUAAGCUAGAUACGAAAUCAGUUUCUCAAACUGAGCUUCAGAAAGGGGCAUUUUGUACUCUUGUUUUUGCAUA | 3.62
GCUGGGGUUUGUUUGUGAGGAGAAAGAGUACUGUGGAAAACCUCUGCUUGAGUACCAUGUGGCCAGGCCUAUGUGGAUGGCUACUCCGUGCUGUGCGGCUUCACCAGCGG | 5.56
GUGUCAGUAUGCAGGACUGCUAUGUACUCGGCAACCAUCCACUGUAGUCACAGCUUCUACUUGCAUAGCCCUCAGCUCCUCGAUGCAGGAAGGGGGCACUGCAUUGCUCU | 0.79

Set 3
Target: Histone acetyltransferase KAT6A, both winged helices, GST fusion (KAT6A, Homo sapiens, UniProt Q92794, residues 1-181)
Method: protein binding microarray
Form: double-stranded DNA, one strand shown
Matrix: in vitro
Concentration: not given
Notes: 8-mer, flanks averaged, mean of 2 arrays, mostly near background
Baseline: not given
Reading: higher = stronger binding
Residues (chain): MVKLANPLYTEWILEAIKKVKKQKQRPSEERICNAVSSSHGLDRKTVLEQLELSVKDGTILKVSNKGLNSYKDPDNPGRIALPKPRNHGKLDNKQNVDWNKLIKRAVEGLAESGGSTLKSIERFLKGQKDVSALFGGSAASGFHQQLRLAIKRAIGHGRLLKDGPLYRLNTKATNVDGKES
Oligonucleotide | E-score
CAATGGTG | -0.156
AATGCTGT | -0.119
AATGCTAT | -0.0139
AACCCTAC | -0.193
CACCAATA | -0.147
GCCATTCA | 0.00432
ATGTTTCC | 0.146
ATACATCC | 0.0953
ACATCATC | -0.11
CGACTGAC | 0.0485
GTTTTGCA | -0.168
ATAACTGA | -0.00588
GAGTGCTA | -0.153
GTAACCGA | 0.0499
AACGCTGA | 0.0763
ATCACTGC | 0.00648
CCTAACAA | -0.139
TCGAACAA | -0.0714
ACGTGACC | -0.0722

Set 4
Target: ABI1, truncated, D143A, DHFR fusion (Arabidopsis thaliana, UniProt P49597)
Method: DHFR PCA, dose-response
Matrix: yeast
Notes: Hill fit, not affinity, not high confidence
Together with: (+)-ABA, dose series
Reading: lower = more sensitive
Starting sequence: PYL1, truncated, DHFR fusion (Arabidopsis thaliana, UniProt Q8VZS8); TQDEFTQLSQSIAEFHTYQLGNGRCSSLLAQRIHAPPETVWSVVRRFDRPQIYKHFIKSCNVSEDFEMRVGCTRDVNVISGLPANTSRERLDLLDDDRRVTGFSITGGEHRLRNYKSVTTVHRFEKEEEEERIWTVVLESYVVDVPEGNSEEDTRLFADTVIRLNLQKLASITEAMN
Substitution | ABA EC50
Q31P | 0.206 µM
W41A | 17.9 µM
D153R | 831 µM
F157W | 318 µM
V78K | 155 µM
V78Q | 696 µM
T154N | 747 µM
R74W | 846 µM
R90P | 0.675 µM
T160D | 1130 µM
P50M | 22.3 µM
V78F | 1.37 µM
I33E | 9.32 µM
T135K | 943 µM
H16K | 196 µM
V40F | 0.369 µM
L29D | 2140 µM
L138K | 197 µM
C25D | 66.8 µM
S117W | 10.3 µM
H110E | 0.388 µM
F157T | 723 µM
V78H | 0.432 µM
F157D | 0.334 µM
F47K | 2060 µM

Set 5
Target: CCNE2, cyclin fold, Cln2 fusion (human)
Method: yeast growth competition, sequencing
Matrix: yeast
Notes: weak parent motif
Baseline: not given
Reading: higher = stronger binding
Starting sequence: ASZ1 docking peptide (human); GFGFLLFICKLTF
Substitution | normalised enrichment score
F13A | 0.59
I8A | 0.688
L11A | 0.581
F7A | 0.442
L6A | 0.982
G3A | 1.17
C9A | 0.986

Repeated from above (set 2):
Oligonucleotide | RBNS enrichment (R)
UCUUCUCACAUCCAUCUACUUUUUUAUCCACCUCCCUACCAAAAAUUGCCAAGUGCCUAUGCAAACCAGCUUUAGGUCCCAAUUCGGGGCCUGCUGGAGUUCCGGCCUGG | 0.721
UUAGGGAAGGAGAAUGUUUGUCCUGUCUCCCUACACUUCCCUGAGGGCUUCUUCCUACCAAAGUGUCCCCUCACCAGUCUGCCUAGAGCAUCACUGGAACCCGCACUAAA | 1.16
CGACUACAGAGUACUUUUUUCUUAUGAUGAUUGGUGUAGAAAUGUGUGAUUUGGGUGGGCUUUUACAUCUUGCCUACCAUUGCAUGAAACAUUGGGGUUUCUUCAAAAUG | 14.7
GGAUGUUCGAUUCAUGUAAGUGACCUACCUGCUGAUGAUCCACAAAUAAUACUUUAGGGUGGCACUGACCGCUAUACCAGCAGCCCCAUGAGCACUCAAAGUGCCUUUCG | 0.316
CUCUGCACCAACAGUUUAUGGCUGAGAUGUUUUGUAAUUUCAUGAUGUUUGUAAUUUUCAUGAAAAUGUGUGAUUUUCGUUUGUGAUAUGAAAGAUCAUUAAUCAAAGAA | 0.737
CCCCAGUUCUGUAGCAGCCGAUCAGCGUCACCUUUGAAGUAUACAUGAGAGAAAUAUAUUUACAAAUGCUUUAUUCUCUUCUUUAAUAAAAAGUGCACCGGUAUUCUAGA | 1.09
UUAUUUGCACAGGGAGAAUUGAAACUGAGUAUAAUCAAUAAGCUAGAUACGAAAUCAGUUUCUCAAACUGAGCUUCAGAAAGGGGCAUUUUGUACUCUUGUUUUUGCAUA | 3.62
GCUGGGGUUUGUUUGUGAGGAGAAAGAGUACUGUGGAAAACCUCUGCUUGAGUACCAUGUGGCCAGGCCUAUGUGGAUGGCUACUCCGUGCUGUGCGGCUUCACCAGCGG | 5.56
GUGUCAGUAUGCAGGACUGCUAUGUACUCGGCAACCAUCCACUGUAGUCACAGCUUCUACUUGCAUAGCCCUCAGCUCCUCGAUGCAGGAAGGGGGCACUGCAUUGCUCU | 0.79
